Measured values collected from several papers.
Lines come from different studies, so protocols differ.

Structure (SMILES) = CCc1noc(CC)c1C(=O)O[C@H]1C(C)=C[C@]23C(=O)[C@@H](C=C(CO)[C@@H](O)[C@]12O)[C@H]1[C@@H](C[C@H]3C)C1(C)C; technique = shake flask; medium = aqueous buffer; time = 24 h; pH = pH 3; measurement = logD; result = 3.9
Structure (SMILES) = COC(=O)C=CCCC(NC(=O)c1ccncc1C(=O)O)C(=O)NC(C(=O)N1CC(=O)CC1C(=O)NC(C(=O)NC(C(N)=O)C1CCCCC1)C1CCCCC1)C(C)(C)C (centres unmarked); technique = shake flask; medium = PBS; pH = pH 7.4; measurement = logD; result = -0.02
Structure (SMILES) = CC(C)(C)c1ccc(COc2cc3c(=O)c(C(=O)NCCNCCO)cn(Cc4ccccc4)c3cc2Cl)cc1; technique = shake flask; medium = PBS; time = 2 h; pH = pH 7.4; measurement = logD; result = > 3
Structure (SMILES) = C=C1CCC2[C@](C)(CO)[C@H](O)CC[C@@]2(C)[C@@H]1/C=C/C1=CCOC1=O (some centres unmarked); technique = HPLC; pH = pH 7.4; measurement = chromatographic logD; result = 2.4
Structure (SMILES) = COc1cc2ncnc(Oc3cccc(N[11C](=O)Nc4cc(C(C)(C)C(F)(F)F)on4)c3)c2cc1OC; technique = shake flask; medium = PBS; pH = pH 7.4; measurement = logD; result = 4.4
Structure (SMILES) = N#Cc1ccc(NC(=O)c2cccnc2)cc1Cl; technique = shake flask; medium = PBS; time = 4 h; pH = pH 7.4; measurement = logD; result = 1.9
Structure (SMILES) = CCNC(=O)C1OC(n2cnc3c(N)ncnc32)C(O)C1O (centres unmarked); technique = shake flask; medium = aqueous buffer; pH = pH 7.4; measurement = logD; result = -0.3
Structure (SMILES) = O=C(NCCNCCO)c1cn(Cc2ccccc2)c2cc(OCc3ccc(C(F)(F)F)cc3)c(Cl)cc2c1=O; technique = shake flask; medium = PBS; time = 2 h; pH = pH 7.4; measurement = logD; result = > 3

A few entries again:
Structure (SMILES) = N#Cc1ccc(NC(=O)c2cccnc2)cc1Cl; technique = shake flask; medium = PBS; time = 4 h; pH = pH 7.4; measurement = logD; result = 1.9
